Published values pooled from the literature.
Several values in a cell are separate wells, animals, samples, runs or records. ± marks the error that the study gave.
Chain of UniProt P50052 (whole entry, unmodified, looked up): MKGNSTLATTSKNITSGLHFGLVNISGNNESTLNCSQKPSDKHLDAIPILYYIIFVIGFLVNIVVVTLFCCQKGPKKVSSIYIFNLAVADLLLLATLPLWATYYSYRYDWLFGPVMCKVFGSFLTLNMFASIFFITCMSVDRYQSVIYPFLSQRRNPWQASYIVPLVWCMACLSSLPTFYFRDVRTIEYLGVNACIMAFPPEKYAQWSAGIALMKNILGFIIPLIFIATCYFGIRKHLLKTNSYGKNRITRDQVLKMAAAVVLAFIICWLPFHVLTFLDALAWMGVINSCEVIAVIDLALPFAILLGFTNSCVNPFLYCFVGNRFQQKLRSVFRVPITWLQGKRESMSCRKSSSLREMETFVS

CC(=O)OC[C@H]1O[C@@H](Sc2sc(C(=O)c3ccc(Br)cc3)c(N)c2-c2nc3ccccc3s2)[C@H](OC(C)=O)[C@@H](OC(C)=O)[C@H]1OC(C)=O
non-toxic concentration (FRhK-4; 72 h): 90 µg/mL

CCCC[C@H](NC(=O)CCCCCCCNC(=O)CN1CCN(CC(=O)O)CCN(CC(=O)O)CC1)C(=O)N[C@H]1CC(=O)NCCCC[C@@H](C(N)=O)NC(=O)[C@H](Cc2c[nH]c3ccccc23)NC(=O)[C@H](CCCNC(=N)N)NC(=O)[C@@H](Cc2ccccc2)NC(=O)[C@H](Cc2c[nH]cn2)NC1=O [copper-64 labelled]
tissue uptake (C57 mice, blood; intravenous, 0.37 MBq, 0.5 h): 2.01 ± 0.6 %ID/g

CCOC(=O)c1cc(-c2nc3ccccc3s2)c(=O)n(NS(=O)(=O)c2ccc(Cl)cc2)c1N
maximum non-toxic concentration (BGM; trypan blue; 72 h): 130 µg/mL

O=C1c2ccccc2C2(c3ccc(O)cc3Oc3cc(O)ccc32)N1CCS(=O)(=O)O
Papp (hRMEC monolayer; 100 µM, 360 min, apical to basolateral): 10.7 ± 0.36 ×10⁻⁶ cm/s

Cc1[nH][n+]([Pt-2]([Cl])([n+]2[nH]c(C)c(CSCc3ccccc3)c2C)[n+]2[nH]c(C)c(CSCc3ccccc3)c2C)c(C)c1CSCc1ccccc1.Cl
IC50 (Jurkat; cytotoxicity, 7-AAD flow cytometry; 24 h): 0.07 µM

CCc1nc2ccc(N(Cc3ccccc3)C(=O)c3cccs3)cc2c(=O)n1Cc1ccc(-c2ccccc2-c2nn[nH]n2)cc1
Ki (AGTR2 (Homo sapiens, UniProt P50052, F129A); ligand displacement, radioligand; cell membranes): 0.0115 µM

COc1ccc2c3c(oc2c1CC=C(C)C)-c1cc(CC=C(C)C)c(O)cc1OC3
viability (3T3-L1; MTT; concentration not given): 76.5 ± 1.1%

CC(=O)O[C@@H]1C[C@H]2C(C)(C)[C@H](O)CC[C@]2(C)[C@H]2CC[C@@]3(C)C(=CC[C@H]3[C@@H](C)C[C@@H](O)[C@H](O)C(C)(C)O)[C@@]21C
cytotoxicity (fibroblasts; MTT; concentration not given): not toxic

[64Cu+2].c1cnc(CNCc2ccc(CN3CCCN4CCNCCCN(CC4)CC3)cc2)nc1
tissue uptake (CXCR4; NOD/SCID mouse, U87 and U87-stb-CXCR4 xenografts, bladder; iv, 60 min, ex vivo): 2.15 ± 0.32 %ID/g

CCCC[C@@H]1NC(=O)[C@@H](NC(=O)[C@H](CCC(=O)O)NC(=O)CNC(=O)CN2CCN(CC(=O)O)CCN(CC(=O)O)CCN(CC(=O)O)CC2)CCCCNC(=O)C[C@@H](C(N)=O)NC(=O)[C@H](C(C)C)NC(=O)[C@@H]2CCCN2C(=O)[C@H](CCCNC(=N)N)NC(=O)CNC(=O)[C@H](Cc2c[nH]c3ccccc23)NC(=O)[C@H](CCCNC(=N)N)NC(=O)[C@@H](Cc2ccccc2)NC(=O)[C@H](Cc2c[nH]cn2)NC(=O)[C@H](CCC(=O)O)NC1=O [gallium-67 labelled]
tissue uptake (C57 mice with B16/F1 melanoma, heart; intravenous, 2 h): 0.04 ± 0.04 %ID/g

C=C(C)[C@@H]1CC[C@]2(C(=O)n3ccnc3)CC[C@]3(C)[C@H](CC[C@@H]4[C@@]5(C)CCCNC(C)(C)[C@@H]5CC[C@]43C)[C@@H]12
CC50 (primary HFF; cell viability, CellTiter-Glo; HCMV AD169 assay setting): 1.18 µM

CC(=O)O[C@@H]1[C@@H](OC(C)=O)[C@H](Sc2sc(C(=O)c3ccc(Br)cc3)c(N)c2-c2nc3ccccc3s2)OC[C@@H]1OC(C)=O
non-toxic concentration (FRhK-4; 72 h): 90 µg/mL

COc1ccc2c(c1CC=C(C)C)O[C@H]1c3cc4c(cc3OC[C@@]21O)OC(C)(C)C=C4
viability (3T3-L1; MTT; concentration not given): 56.5 ± 1.3%

O=C(CN1CCN(C(=O)CC23CC4CC(CC(C4)C2)C3)CC1)NC1CCN(S(=O)(=O)c2cc(C(=O)Nc3cc(F)c(F)c(F)c3)ccc2F)CC1
maximum non-toxic concentration (HepAD38; cytopathic effect; human hepatoma cells): 10 µmol/L

NS(=O)(=O)Nc1ncnc(OCCOc2ncc(Br)cn2)c1-c1ccc(Br)cc1
Vmax (metabolite formation; female Beagle dog, liver microsomes; 50 mg/kg daily for 4 weeks): 1730 ± 67 pmol/min/mg

CCCCC/C=C/C(=O)CCc1ccc(O)c(OC)c1
IC50 (mAb 4-AT4; antibody binding, indirect competitive ELISA; added: coating antigen hapten 4-OVA): 0.0614 µg/mL

CC(=O)[O-].Nc1ccc(C([O-])=NN=Cc2ccc(OCC(=O)Nc3ccc(Cl)cc3)cc2)cc1.[Ni+2]
IC50 (WISH; cytotoxicity, MTT; 24 h): 18.3 ± 1.8 µM

CC(=O)OC[C@H]1O[C@@H](Sc2sc(C(=O)c3ccc(Cl)cc3)c(N)c2-c2nc3ccccc3s2)[C@H](OC(C)=O)[C@@H](OC(C)=O)[C@H]1OC(C)=O
maximum non-toxic concentration (BGM; cytotoxicity; 72 h): 80 µg/mL

C=C1CC[C@H](OCCCNC(=O)CCOCCOCCOCCOCCOCCOCCOCCOCCOCCOCCOCCOCCOCCOCCOCCOCCOCCOCCOCCOCCOCCOCCOCCOCCOCCOCCOCCOCCOCCOCCOCCOCCOCCOCCOCCOCCNC(=O)CCN2C(=O)CC(SC[C@H](NC(=O)[C@H](Cc3ccccc3)NC(=O)[C@H](CC(N)=O)NC(=O)[C@H](Cc3c[nH]cn3)NC(=O)[C@@H](NC(=O)[C@H](CC(=O)O)NC(=O)[C@H](CCC(N)=O)NC(=O)[C@H](CC(C)C)NC(=O)[C@H](CCCCN)NC(=O)[C@H](CCCCN)NC(=O)[C@H](CCCNC(=N)N)NC(=O)[C@H](CC(C)C)NC(=O)[C@H](Cc3c[nH]c4ccccc34)NC(=O)[C@H](CCC(=O)O)NC(=O)[C@@H](NC(=O)[C@H](CCCNC(=N)N)NC(=O)[C@H](CCC(=O)O)NC(=O)[C@H](CCSC)NC(=O)[C@H](CO)NC(=O)[C@H](CC(N)=O)NC(=O)[C@H](CC(C)C)NC(=O)[C@H](Cc3c[nH]cn3)NC(=O)[C@H](CCCCN)NC(=O)CNC(=O)[C@H](CC(C)C)NC(=O)[C@H](CC(N)=O)NC(=O)[C@H](Cc3c[nH]cn3)NC(=O)[C@H](CCSC)NC(=O)[C@H](CC(C)C)NC(=O)[C@H](CCC(N)=O)NC(=O)[C@@H](NC(=O)[C@H](CCC(=O)O)NC(=O)[C@H](CO)NC(=O)[C@@H](NC(=O)[C@@H](N)CO)C(C)C)[C@@H](C)CC)C(C)C)C(C)C)C(N)=O)C2=O)C/C1=C/C=C1\CCC[C@]2(C)[C@@H]([C@H](C)CCCC(C)(C)O)CC[C@@H]12 (stereo partly shown)
dose-normalized AUC (Sprague Dawley rat; subcutaneous, 1 µg/kg daily, 89 days; relative to: reference dose): 1

COc1cc(CNC(=O)C[C@H](C)CCC=C(C)C)ccc1OCc1cn(-c2ccc(F)cc2)nn1
growth percent (M14 melanoma cells; SRB; 10 µM, 48 h): 102%

O=c1c(-c2nc3ccccc3s2)cc2c(n1NS(=O)(=O)c1ccc(Cl)cc1)CCCCCC2
maximum non-toxic concentration (FRhK-4; trypan blue; 72 h): 130 µg/mL

CC(=O)O[C@@H]1[C@@H](OC(C)=O)[C@H](Sc2sc(C(=O)c3ccc(Cl)cc3)c(N)c2-c2nc3ccccc3s2)OC[C@H]1OC(C)=O
non-toxic concentration (FRhK-4; 72 h): 80 µg/mL

COc1cc(/C=C/C(=O)c2ccc3ccccc3c2)ccc1OCc1ccccc1
GI50 (HEK293 empty vector pcDNA3.1; cell growth, MTT; 72 h, 10% FBS): > 100 µM

C=CC(=O)N1CCCC(n2c(=O)c3ncccc3n(Cc3ccc(Oc4ccccc4)cc3)c2=O)C1 (stereo not shown)
cellular uptake time (Rec1 and HCT-116; 0.2 µM): < 5 min

Nc1c(C(=O)c2ccc(Cl)cc2)sc(S)c1-c1nc2ccccc2s1
maximum non-toxic concentration (BGM; cytotoxicity; 72 h): 70 µg/mL and 80 µg/mL

COc1ccc([C@@H]2CC(=O)c3c(O)cc(O[C@@H]4O[C@H](CO[C@@H]5O[C@@H](C)[C@H](O)[C@@H](O)[C@H]5O)[C@@H](O)[C@H](O)[C@H]4O)cc3O2)cc1O
viability (MRC5; cell growth or viability, MTS; 100 µg/mL, 48 h): 62.2%

N#Cc1cccc(-c2ccc(=O)n(Cc3cccc(-c4ncc(OCC5CCN(CC(=O)NCCOCCNc6ccc7c(c6)C(=O)N(C6CCC(=O)NC6=O)C7=O)CC5)cn4)c3)n2)c1 (stereo not shown)
DC50 (MET (Homo sapiens, UniProt P08581); degrader): 0.00069 ± 0.00021 µM

CCOC(=O)c1cc(-c2nc3ccccc3s2)c(=O)n(NS(=O)(=O)c2ccccc2)c1N
maximum non-toxic concentration (BGM; trypan blue; 72 h): 100 µg/mL

CC(=O)O[C@@H]1[C@@H](OC(C)=O)[C@H](Sc2sc(C(=O)c3ccc(C)cc3)c(N)c2-c2nc3ccccc3s2)OC[C@H]1OC(C)=O
maximum non-toxic concentration (BGM; cytotoxicity; 72 h): 80 µg/mL

COc1cc(/C=C/C(=O)c2ccc3c(c2)OCO3)ccc1OCc1ccccc1
GI50 (HEK293 empty vector pcDNA3.1; cell growth, MTT; 72 h, 10% FBS): 17.5 ± 1.2 µM

CC[C@@]1(C)CC[C@H]2[C@@](C)(CC[C@@]3(C)[C@@H]4CC(C)(C)CC[C@]4(C)CC[C@]23C)[C@@H]1CCC(=O)O
IC50 (HEK293-A; cell growth or viability, SRB): 22.8 µM

Fc1ccccc1/C=C/c1nc2ccccc2nc1N1CCOCC1
IC50 (HL7702; cell viability, MTT; 72 h): 90.2 ± 5.23 µM

O=C(Nc1cc(F)c(F)c(F)c1)c1ccc(F)c(S(=O)(=O)N2CCC(NC(=O)C3CN(C(=O)CC45CC6CC(CC(C6)C4)C5)C3)CC2)c1
maximum non-toxic concentration (HepAD38; cytopathic effect; human hepatoma cells): 15 µmol/L

[64Cu+2].c1ccc(CNCc2ccc(CN3CCCN4CCNCCCN(CC4)CC3)cc2)nc1
tissue uptake (CXCR4; NOD/SCID mouse, U87 and U87-stb-CXCR4 xenografts, heart; iv, 480 min, ex vivo): 1.87 ± 0.22 %ID/g

CCCc1nc2ccc(N(Cc3ccco3)C(=O)c3ccccc3)cc2c(=O)n1Cc1ccc(-c2ccccc2-c2nnn[nH]2)cc1
Ki (AGTR2 (Homo sapiens, UniProt P50052, T178A); ligand displacement, radioligand; cell membranes): 0.00269 µM

COc1cc(CCC(C)=O)ccc1O
IC50 (mAb 4-AT4; antibody binding, indirect competitive ELISA; added: coating antigen hapten 4-OVA): > 4 µg/mL

CCCCCCCCCCCC(=O)NCCC(=O)N[C@H](CCCNC(=N)N)C(=O)N[C@H](CCCNC(=N)N)C(=O)N[C@H](CCCNC(=N)N)C(=O)N[C@H](CCCNC(=N)N)C(=O)N[C@H](CCCNC(=N)N)C(=O)N[C@@H](CCCNC(=N)N)C(=O)N[C@@H](CCCNC(=N)N)C(=O)N[C@@H](CCCNC(=N)N)C(=O)N[C@@H](CCCNC(=N)N)C(=O)N[C@@H](CCCCNC(=S)Nc1ccc2c(c1)C(=O)OC21c2ccc(O)cc2Oc2cc(O)ccc21)C(N)=O
peak area (Jurkat; RP-HPLC fluorescence, measured: intact peptide; culture medium; 6 h): 29.1%
